Results pooled from the literature.
Every numbered part comes from another study and shows a few of its results, in no order. Positions count from the first letter of the parent shown.

Set 1
Target: ABI1, truncated, D143A, DHFR fusion (Arabidopsis thaliana)
Method: DHFR PCA, deep sequencing
Matrix: yeast
Notes: methotrexate growth selection, single substitutions
With: (+)-ABA 4.8 µM
Baseline: wild-type fitted maximum
Direction: higher = stronger binding
Parent: PYL1, truncated, DHFR fusion (Arabidopsis thaliana); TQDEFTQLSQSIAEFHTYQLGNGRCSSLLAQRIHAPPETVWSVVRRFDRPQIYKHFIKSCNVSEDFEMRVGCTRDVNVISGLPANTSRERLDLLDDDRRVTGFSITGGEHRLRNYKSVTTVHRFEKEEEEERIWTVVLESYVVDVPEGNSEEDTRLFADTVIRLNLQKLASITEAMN
Variant	relative binding score
C25D	-9.32%
A84T	13.8%
E139I	49.6%
K126Q	83.8%
D95V	-4.34%

Set 2
Target: Sal-like protein 4, full length isoform A (SALL4, Homo sapiens, UniProt Q9UJQ4, residues 1-1053)
Sequence of UniProt Q9UJQ4 (whole entry, looked up): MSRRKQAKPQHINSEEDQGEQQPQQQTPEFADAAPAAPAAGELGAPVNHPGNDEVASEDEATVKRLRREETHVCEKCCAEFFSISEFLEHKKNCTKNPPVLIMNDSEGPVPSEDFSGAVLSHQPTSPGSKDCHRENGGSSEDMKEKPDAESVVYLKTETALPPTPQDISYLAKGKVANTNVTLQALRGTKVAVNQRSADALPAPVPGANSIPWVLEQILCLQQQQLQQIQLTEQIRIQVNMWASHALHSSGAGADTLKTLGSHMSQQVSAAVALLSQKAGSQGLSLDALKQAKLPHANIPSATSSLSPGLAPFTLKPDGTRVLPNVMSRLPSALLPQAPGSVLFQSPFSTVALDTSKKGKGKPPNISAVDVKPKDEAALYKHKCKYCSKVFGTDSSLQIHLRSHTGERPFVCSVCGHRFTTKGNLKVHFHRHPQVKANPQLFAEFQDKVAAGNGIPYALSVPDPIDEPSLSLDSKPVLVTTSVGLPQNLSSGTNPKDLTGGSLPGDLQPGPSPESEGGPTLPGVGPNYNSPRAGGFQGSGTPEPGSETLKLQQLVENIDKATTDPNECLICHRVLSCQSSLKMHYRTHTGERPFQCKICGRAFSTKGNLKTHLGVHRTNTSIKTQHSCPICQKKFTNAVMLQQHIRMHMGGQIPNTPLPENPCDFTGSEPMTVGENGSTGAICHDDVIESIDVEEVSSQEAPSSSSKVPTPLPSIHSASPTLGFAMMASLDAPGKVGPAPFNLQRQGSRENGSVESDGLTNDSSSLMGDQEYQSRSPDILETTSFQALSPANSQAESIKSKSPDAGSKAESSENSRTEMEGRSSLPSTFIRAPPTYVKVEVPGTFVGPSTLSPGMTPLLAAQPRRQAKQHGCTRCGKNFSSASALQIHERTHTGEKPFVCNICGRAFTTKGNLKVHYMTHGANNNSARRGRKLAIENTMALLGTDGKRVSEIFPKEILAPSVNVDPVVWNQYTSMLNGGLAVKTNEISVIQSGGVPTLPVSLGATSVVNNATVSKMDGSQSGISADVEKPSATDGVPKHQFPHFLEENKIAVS
Method: universal PBM
Form: double-stranded DNA, one strand shown
Matrix: in vitro
Concentration: 600 nM
Notes: 8-mer, flanks averaged, mean of replicates
Direction: higher = stronger binding
Sequence	E-score
GCCGGCGA	-0.355
CCTGAAGG	-0.151
TGGACAAA	0.0305
CACGATAG	-0.018
CCGAGGAC	-0.288
GGACTCGA	-0.142
GTCCTAGA	-0.17
TCGCACGA	-0.0324

Set 3
Target: POU domain, class 5, transcription factor 1, POU domain (Pou5f1, Mus musculus, UniProt P20263, residues 131-289)
Sequence of UniProt P20263 (131-289, looked up): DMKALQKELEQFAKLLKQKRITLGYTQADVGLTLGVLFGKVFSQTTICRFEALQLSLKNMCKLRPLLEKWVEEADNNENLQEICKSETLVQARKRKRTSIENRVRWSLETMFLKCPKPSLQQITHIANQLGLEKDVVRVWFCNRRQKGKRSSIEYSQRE
Method: Spec-seq
Form: double-stranded DNA, one strand shown
Matrix: in vitro
Concentration: not given
Notes: whole probe, mean of replicates
Baseline: not given
Direction: lower = stronger binding
All sequences stand within: GAGTCGTCTCGTCAGCAC … CCGTAGAGCACTCAGGTC
Sequence	relative binding energy [ln ratio]
ATGCATAT	-2.05
CCACTAAT	0.83
ATGCCTCC	0.725
ATCCACAT	0.464
ATGCTCCG	0.815
TGAGTAAT	0.744
ATGCGATC	0.43

Single results of other studies
Substance	target	test	system	setting	scale	measurement	result
PhoQ, residues 284 288 289 292 302 303 SSLVEF	PhoP, residues 12 14 15 18 19 LHTVM (Escherichia coli, UniProt P23836)	Sort-seq, refers to: YFP reporter	E. coli	PhoQ-PhoP variant library, with: 10 µM Mg2+	baseline: high Mg2+ state, higher = stronger signaling	fold induction	16.4

Some of these lines once more (set 1):
Variant	relative binding score
A84T	13.8%
E139I	49.6%
K126Q	83.8%
